{"data": "Experimental data gathered from unrelated publications", "note": "A part holds a random share of what one study measured.", "UniProt Q14289, sequence (whole entry, looked up)": "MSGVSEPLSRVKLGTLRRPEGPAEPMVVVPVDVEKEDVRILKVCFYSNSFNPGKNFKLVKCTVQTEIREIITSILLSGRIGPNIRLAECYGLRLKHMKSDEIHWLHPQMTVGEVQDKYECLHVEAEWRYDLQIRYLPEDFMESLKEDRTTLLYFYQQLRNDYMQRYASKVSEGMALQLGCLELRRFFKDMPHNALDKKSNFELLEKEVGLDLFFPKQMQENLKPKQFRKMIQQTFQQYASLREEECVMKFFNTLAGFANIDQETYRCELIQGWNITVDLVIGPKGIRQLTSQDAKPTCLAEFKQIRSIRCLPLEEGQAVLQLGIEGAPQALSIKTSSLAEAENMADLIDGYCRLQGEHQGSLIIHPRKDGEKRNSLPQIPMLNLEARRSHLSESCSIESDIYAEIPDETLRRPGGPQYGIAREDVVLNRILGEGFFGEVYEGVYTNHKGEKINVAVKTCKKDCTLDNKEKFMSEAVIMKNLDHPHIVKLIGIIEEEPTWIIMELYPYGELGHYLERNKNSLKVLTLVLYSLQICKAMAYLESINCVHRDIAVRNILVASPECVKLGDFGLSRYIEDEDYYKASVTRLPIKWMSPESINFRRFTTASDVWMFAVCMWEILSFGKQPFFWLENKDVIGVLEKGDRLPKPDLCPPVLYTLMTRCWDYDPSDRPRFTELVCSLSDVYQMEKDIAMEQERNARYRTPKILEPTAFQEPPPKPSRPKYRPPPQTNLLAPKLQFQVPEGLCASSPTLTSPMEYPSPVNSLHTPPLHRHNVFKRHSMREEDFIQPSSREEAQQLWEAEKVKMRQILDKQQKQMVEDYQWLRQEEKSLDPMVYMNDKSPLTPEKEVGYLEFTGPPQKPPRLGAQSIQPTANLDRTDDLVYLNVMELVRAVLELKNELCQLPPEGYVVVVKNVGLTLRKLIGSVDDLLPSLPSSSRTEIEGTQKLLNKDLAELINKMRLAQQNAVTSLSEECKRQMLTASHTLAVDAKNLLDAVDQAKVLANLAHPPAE", "UniProt Q16288, sequence (whole entry, looked up)": "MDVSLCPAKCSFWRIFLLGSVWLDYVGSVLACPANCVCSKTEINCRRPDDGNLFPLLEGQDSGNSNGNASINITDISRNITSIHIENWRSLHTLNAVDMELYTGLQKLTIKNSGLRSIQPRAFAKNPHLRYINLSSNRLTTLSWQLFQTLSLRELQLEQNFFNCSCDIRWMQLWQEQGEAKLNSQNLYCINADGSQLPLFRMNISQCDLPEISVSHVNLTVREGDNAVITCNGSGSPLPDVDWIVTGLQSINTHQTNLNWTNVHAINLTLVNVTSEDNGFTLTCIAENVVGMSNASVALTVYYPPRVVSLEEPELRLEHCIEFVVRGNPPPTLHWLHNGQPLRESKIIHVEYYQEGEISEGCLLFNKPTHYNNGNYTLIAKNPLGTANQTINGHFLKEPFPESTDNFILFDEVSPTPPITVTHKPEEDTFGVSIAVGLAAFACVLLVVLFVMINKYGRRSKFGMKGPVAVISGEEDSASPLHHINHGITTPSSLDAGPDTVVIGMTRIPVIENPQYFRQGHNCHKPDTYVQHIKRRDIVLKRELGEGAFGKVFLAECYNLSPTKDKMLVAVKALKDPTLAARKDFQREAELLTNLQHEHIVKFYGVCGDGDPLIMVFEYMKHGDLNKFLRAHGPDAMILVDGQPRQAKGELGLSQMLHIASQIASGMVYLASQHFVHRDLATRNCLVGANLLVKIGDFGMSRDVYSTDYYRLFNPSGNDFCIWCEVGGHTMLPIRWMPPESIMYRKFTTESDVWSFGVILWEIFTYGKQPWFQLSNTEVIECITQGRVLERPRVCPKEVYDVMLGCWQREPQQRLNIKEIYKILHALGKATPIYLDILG", "UniProt P41279, sequence (whole entry, looked up)": "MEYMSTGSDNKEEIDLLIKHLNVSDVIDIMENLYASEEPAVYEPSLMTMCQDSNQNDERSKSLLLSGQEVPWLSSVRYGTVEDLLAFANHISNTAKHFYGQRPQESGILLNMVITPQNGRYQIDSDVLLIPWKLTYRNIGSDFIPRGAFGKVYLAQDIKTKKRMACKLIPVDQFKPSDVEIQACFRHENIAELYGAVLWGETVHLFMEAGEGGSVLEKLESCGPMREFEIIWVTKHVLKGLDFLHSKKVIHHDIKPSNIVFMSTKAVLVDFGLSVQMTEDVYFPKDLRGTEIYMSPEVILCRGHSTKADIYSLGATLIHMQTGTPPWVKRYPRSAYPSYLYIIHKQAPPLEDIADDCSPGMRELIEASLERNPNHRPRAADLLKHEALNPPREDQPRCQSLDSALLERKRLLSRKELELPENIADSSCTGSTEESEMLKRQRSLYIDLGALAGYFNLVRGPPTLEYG", "UniProt Q96NX5, sequence (whole entry, looked up)": "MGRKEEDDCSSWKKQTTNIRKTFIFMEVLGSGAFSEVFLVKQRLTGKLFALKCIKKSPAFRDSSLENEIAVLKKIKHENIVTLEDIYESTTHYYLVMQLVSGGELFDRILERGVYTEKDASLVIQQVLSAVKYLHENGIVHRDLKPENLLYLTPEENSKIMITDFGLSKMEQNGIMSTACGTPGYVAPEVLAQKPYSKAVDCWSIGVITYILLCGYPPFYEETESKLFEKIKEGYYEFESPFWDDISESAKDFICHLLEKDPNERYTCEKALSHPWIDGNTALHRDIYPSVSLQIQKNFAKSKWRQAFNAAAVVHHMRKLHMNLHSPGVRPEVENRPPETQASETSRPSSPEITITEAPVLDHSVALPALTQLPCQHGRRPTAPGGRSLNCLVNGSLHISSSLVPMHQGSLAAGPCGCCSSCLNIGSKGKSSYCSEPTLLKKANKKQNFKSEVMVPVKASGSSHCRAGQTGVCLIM", "UniProt P19784, sequence (whole entry, looked up)": "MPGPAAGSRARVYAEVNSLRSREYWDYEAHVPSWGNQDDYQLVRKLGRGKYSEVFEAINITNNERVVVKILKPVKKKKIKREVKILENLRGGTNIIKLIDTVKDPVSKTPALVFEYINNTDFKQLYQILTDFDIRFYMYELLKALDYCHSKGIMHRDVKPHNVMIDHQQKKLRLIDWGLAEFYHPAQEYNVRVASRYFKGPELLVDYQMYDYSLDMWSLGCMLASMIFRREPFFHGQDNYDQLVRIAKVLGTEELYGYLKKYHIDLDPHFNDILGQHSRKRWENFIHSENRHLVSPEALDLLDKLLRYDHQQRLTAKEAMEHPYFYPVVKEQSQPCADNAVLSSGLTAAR", "UniProt Q09013, sequence (whole entry, looked up)": "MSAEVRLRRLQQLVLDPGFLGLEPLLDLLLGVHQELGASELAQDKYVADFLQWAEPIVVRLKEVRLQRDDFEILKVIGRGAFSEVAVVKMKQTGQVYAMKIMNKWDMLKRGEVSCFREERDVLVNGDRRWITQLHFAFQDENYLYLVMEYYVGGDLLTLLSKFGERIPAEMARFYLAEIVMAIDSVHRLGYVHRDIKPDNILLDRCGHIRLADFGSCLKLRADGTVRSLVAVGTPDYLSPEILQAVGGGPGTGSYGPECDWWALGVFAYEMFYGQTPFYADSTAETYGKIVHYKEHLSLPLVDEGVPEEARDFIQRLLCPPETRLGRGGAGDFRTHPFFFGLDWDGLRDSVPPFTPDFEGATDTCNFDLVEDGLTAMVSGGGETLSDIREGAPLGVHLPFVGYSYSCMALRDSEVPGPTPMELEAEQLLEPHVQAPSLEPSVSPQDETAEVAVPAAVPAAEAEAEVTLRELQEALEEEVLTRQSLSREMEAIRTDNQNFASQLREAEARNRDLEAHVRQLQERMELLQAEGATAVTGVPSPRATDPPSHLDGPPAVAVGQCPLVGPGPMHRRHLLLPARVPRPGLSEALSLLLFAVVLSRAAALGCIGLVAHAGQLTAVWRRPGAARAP"}
{"data": "Set 1", "organism": "Sarcocystis neurona", "observed": "parasite growth", "tested at": "10 µM", "reference": "untreated"}
{"SMILES": "O=C(O[C@@H]1Cc2c(O)cc(O)cc2O[C@@H]1c1cc(O)c(O)c(O)c1)c1cc(O)c(O)c(O)c1", "log2 fold change": 0.31}
{"SMILES": "OC[C@H]1O[C@@H](n2cnc3c(NC4CCCC4)nc(Cl)nc32)[C@H](O)[C@@H]1O", "log2 fold change": 0.3}
{"SMILES": "COc1cc(N)c(Cl)cc1C(=O)NC1CCN(CCCOc2ccc(F)cc2)CC1OC.O (centres unmarked)", "log2 fold change": -0.1}
{"SMILES": "CC(C)c1ccc2c(c1)c(SC(C)(C)C)c(CC(C)(C)C(=O)O)n2Cc1ccc(Cl)cc1", "log2 fold change": -0.12}
{"SMILES": "CCCc1nc(C)c2c(=O)[nH]c(-c3cc(S(=O)(=O)N4CCN(CC)CC4)ccc3OCC)nn12.O=C(O)CC(O)(CC(=O)O)C(=O)O", "log2 fold change": 0.36}
{"SMILES": "Cc1cccc(CN2CCN(C(c3ccccc3)c3ccc(Cl)cc3)CC2)c1.Cl.Cl (centres unmarked)", "log2 fold change": 0.21}
{"SMILES": "CN1CCc2cc(Cl)c(O)cc2[C@@H](c2ccccc2)C1.Cl", "log2 fold change": 0.36}
{"SMILES": "CN[C@@H]1[C@H](O)[C@H](NC)[C@H]2O[C@@]3(O)C(=O)C[C@@H](C)O[C@H]3O[C@@H]2[C@H]1O.Cl.Cl", "log2 fold change": 0.29}
{"SMILES": "CN1CCN(c2c(F)cc3c(=O)c(C(=O)O)cn4c3c2SCC4)CC1.Cl", "log2 fold change": 0.3}
{"SMILES": "C[N+]1(C)CCC(OC(=O)C(O)(c2ccccc2)C2CCCC2)C1.[Br-] (centres unmarked)", "log2 fold change": -0.03}
{"data": "Set 2", "cell line": "normal-adjacent organoid sample F", "technique": "CellTiter-Glo", "tested at": "1 µM", "notes": "replicate mean", "reference": "DMSO"}
{"SMILES": "CNC(=O)c1ccccc1Nc1cc(Nc2ccc(N3CCOCC3)cc2OC)ncc1C(F)(F)F", "viability [%]": 29.7}
{"SMILES": "CCCCN(Cc1ccccc1)C(=O)c1ccc(S(=O)(=O)Nc2ccccc2)cc1", "viability [%]": 112}
{"SMILES": "COc1cc(-c2cn(C3CCc4ccccc4N(CC(F)(F)F)C3=O)nn2)ccc1-n1ccc(C)n1 (centres unmarked)", "viability [%]": 97.5}
{"SMILES": "N#CC1(c2ccccn2)CCN(Cc2cc(C(=O)O)c(=O)n3ccccc23)CC1", "viability [%]": 95.8}
{"SMILES": "Nc1nc(NCc2ccccc2)nc(-c2cccc(CO)c2)n1", "viability [%]": 141}
{"SMILES": "CC1=C(C#N)C(c2ccc3c(c2)c(NC(=O)c2ccccc2C)nn3C)C(C#N)=C(C)N1", "viability [%]": 96.4}
{"SMILES": "C[C@@H](c1cccc(C#N)c1)n1cc(Cl)cc(C(N)=O)c1=N", "viability [%]": 90.5}
{"SMILES": "O=C1c2ccc(Nc3ccc(F)cc3F)cc2CCc2ccc(OC[C@H](O)CO)cc21", "viability [%]": 140}
{"SMILES": "COc1cc(-c2cn(C3CCc4c(F)cccc4N(CC(F)(F)F)C3=O)nn2)ccc1-n1cnc(C)c1 (centres unmarked)", "viability [%]": 108}
{"SMILES": "O=C(NNS(=O)(=O)c1ccccc1)c1cc(-c2ccnnc2)ccc1F", "viability [%]": 102}
{"SMILES": "CNC(=O)c1cc(C(=O)N[C@H]2[C@@H]3COC[C@@H]32)cc2c1O[C@H](CF)[C@H]2c1ccccc1", "viability [%]": 87.6}
{"SMILES": "Cn1nc(C(F)(F)F)cc1-c1cnc(N2CCc3cc(S(=O)(=O)Nc4c(F)cc(Cl)cc4F)cc(N4CCCC4=O)c32)nc1", "viability [%]": 98.8}
{"SMILES": "CC(=O)N1CCC(c2ccc(C(=O)NC3=NCCN3)cc2C(F)(F)F)CC1", "viability [%]": 113}
{"SMILES": "CN1CCN(C(=O)C(C)(C)c2ccc(C(=O)Nc3cn4cc(-c5cc(C(C)(C)C)cc(C(C)(C)C)c5)ccc4n3)cc2)CC1", "viability [%]": 87.2}
{"SMILES": "Cc1cc(-n2nc(Cc3cc(F)cc(C(F)(F)F)c3)nc2C)ccc1C(N)=O", "viability [%]": 102}
{"SMILES": "Cn1cncc1[C@](O)(COc1ccc(C#N)cc1-c1ccc(OC(F)(F)F)cc1)c1ccc(C#N)cc1", "viability [%]": 57.3}
{"SMILES": "N#CC1(c2ccccn2)CCN(Cc2cc(C(=O)N3CCCC3)c(=O)n3ccccc23)CC1", "viability [%]": 110}
{"SMILES": "CCC(=O)N[C@H]1CC[C@@H](C(=O)N(C)c2ccc(-c3nc4ccccc4o3)cc2)C1", "viability [%]": 11.6}
{"data": "Set 3", "host": "human", "medium": "microsomes or S9", "tested at": "2 µM", "time": "0.5 h"}
{"SMILES": "O=C(Nc1cc(Cl)ccc1Cl)c1c2c(nn1C1CCS(=O)(=O)C1)CCC2 (centres unmarked)", "remaining compound [%]": 69.4}
{"SMILES": "O=S1(=O)N=C(N2CCOCC2)c2ccccc21", "remaining compound [%]": "> 99"}
{"SMILES": "COc1cccc(-c2c3c(cc(OC)c2OC)C(=O)N(c2cccc(C(=O)O)c2)C3)c1", "remaining compound [%]": 92.8}
{"SMILES": "Cc1cc(OCC(O)CN2C(C)(C)CC(O)CC2(C)C)ccc1C(C)C (centres unmarked)", "remaining compound [%]": 26}
{"SMILES": "CCOc1cc(-c2nnc3[nH]c(=O)n(C)c(=O)c3n2)ccc1OC(C)C", "remaining compound [%]": 86.2}
{"SMILES": "CNc1nc(CNc2nc(COC)nc3scc(-c4ccccc4)c23)cs1", "remaining compound [%]": 3.9}
{"SMILES": "Cc1cc(-c2cnc(C)nc2-c2sccc2C)on1", "remaining compound [%]": 63.4}
{"SMILES": "Cc1ccc(Nc2cc(C)n3c(=O)[nH]nc3n2)cc1F", "remaining compound [%]": 62.4}
{"SMILES": "CC(C)(C)c1cc(O)c2o/c(=N\\c3ccc(S(N)(=O)=O)cc3)c(C(N)=O)cc2c1", "remaining compound [%]": 96}
{"SMILES": "COc1cc(=O)n(C)cc1C(=O)N1CCc2ccccc21", "remaining compound [%]": 84.4}
{"SMILES": "CCC(=O)N(CCOC)CC(=O)N1N=C(c2cccs2)CC1c1sccc1C (centres unmarked)", "remaining compound [%]": 36}
{"SMILES": "Cn1c(=O)c2sc3c(c2n(CCN2CCCCC2)c1=O)CCCC3", "remaining compound [%]": 72.5}
{"SMILES": "CCCn1cc(S(=O)(=O)N2CCC(c3nc4cnccn4c3NC(C)(C)C)CC2)c(C)n1", "remaining compound [%]": 2}
{"data": "Set 4", "Compound": "COc1ccc(Cl)cc1NC(=O)Nc1cc(C)nc2ccccc12", "observed": "enzyme activity", "mode": "inhibitor", "tested at": "0.5 µM", "reference": "control"}
{"target": "CAMK1D (Homo sapiens, UniProt Q8IU85)", "remaining activity [%]": 99.9}
{"target": "MAP3K2 (Homo sapiens, UniProt Q9Y2U5)", "remaining activity [%]": 98}
{"target": "DYRK4 (Homo sapiens, UniProt Q9NR20)", "remaining activity [%]": 98.9}
{"target": "DMPK (Homo sapiens, UniProt Q09013)", "remaining activity [%]": 103}
{"target": "ROS1 (Homo sapiens, UniProt P08922)", "remaining activity [%]": 92.5}
{"target": "RET (Homo sapiens, UniProt P07949)", "remaining activity [%]": 102}
{"target": "HIPK3 (Homo sapiens, UniProt Q9H422)", "remaining activity [%]": 99.1}
{"target": "Cyclin-dependent kinase 2, with cyclin A (CDK2, Homo sapiens, UniProt P24941)", "remaining activity [%]": 98.6}
{"target": "SLK (Homo sapiens, UniProt Q9H2G2)", "remaining activity [%]": 98.8}
{"target": "BRSK1 (Homo sapiens, UniProt Q8TDC3)", "remaining activity [%]": 92.8}
{"target": "ROCK2 (Homo sapiens, UniProt O75116)", "remaining activity [%]": 96.7}
{"target": "Aurora kinase A (AURKA, Homo sapiens, UniProt O14965)", "remaining activity [%]": 93.4}
{"target": "PKN2 (Homo sapiens, UniProt Q16513)", "remaining activity [%]": 89.7}
{"target": "PTK2B (Homo sapiens, UniProt Q14289)", "remaining activity [%]": 88.9}
{"target": "MAPK10 (Homo sapiens, UniProt P53779)", "remaining activity [%]": 86}
{"target": "GRK5 (Homo sapiens, UniProt P34947)", "remaining activity [%]": 109}
{"target": "CSNK2A2 (Homo sapiens, UniProt P19784)", "remaining activity [%]": 96}
{"target": "NEK9 (Homo sapiens, UniProt Q8TD19)", "remaining activity [%]": 104}
{"target": "PRKD1 (Homo sapiens, UniProt Q15139)", "remaining activity [%]": 96.6}
{"target": "EGFR (Homo sapiens, UniProt P00533)", "remaining activity [%]": 98}
{"target": "CDK7 (Homo sapiens, UniProt P50613)", "remaining activity [%]": 101}
{"target": "NTRK3 (Homo sapiens, UniProt Q16288)", "remaining activity [%]": 102}
{"target": "MAP3K8 (Homo sapiens, UniProt P41279)", "remaining activity [%]": 99.5}
{"target": "CAMK1G (Homo sapiens, UniProt Q96NX5)", "remaining activity [%]": 102}
{"note": "Some of these lines once more (set 2):"}
{"SMILES": "CCC(=O)N[C@H]1CC[C@@H](C(=O)N(C)c2ccc(-c3nc4ccccc4o3)cc2)C1", "viability [%]": 11.6}
{"SMILES": "CC1=C(C#N)C(c2ccc3c(c2)c(NC(=O)c2ccccc2C)nn3C)C(C#N)=C(C)N1", "viability [%]": 96.4}
{"SMILES": "N#CC1(c2ccccn2)CCN(Cc2cc(C(=O)O)c(=O)n3ccccc23)CC1", "viability [%]": 95.8}
{"SMILES": "N#CC1(c2ccccn2)CCN(Cc2cc(C(=O)N3CCCC3)c(=O)n3ccccc23)CC1", "viability [%]": 110}
{"SMILES": "O=C(NNS(=O)(=O)c1ccccc1)c1cc(-c2ccnnc2)ccc1F", "viability [%]": 102}
{"SMILES": "Cn1nc(C(F)(F)F)cc1-c1cnc(N2CCc3cc(S(=O)(=O)Nc4c(F)cc(Cl)cc4F)cc(N4CCCC4=O)c32)nc1", "viability [%]": 98.8}
{"SMILES": "O=C1c2ccc(Nc3ccc(F)cc3F)cc2CCc2ccc(OC[C@H](O)CO)cc21", "viability [%]": 140}
{"SMILES": "CC(=O)N1CCC(c2ccc(C(=O)NC3=NCCN3)cc2C(F)(F)F)CC1", "viability [%]": 113}
{"SMILES": "CNC(=O)c1ccccc1Nc1cc(Nc2ccc(N3CCOCC3)cc2OC)ncc1C(F)(F)F", "viability [%]": 29.7}
